Experimental data gathered from unrelated publications.
Protocols differ between the studies behind these lines. Numbers after ± are the reported error. In brackets after ≈: the same amount, converted by molar mass.

COc1cccc(OC)c1-c1cc(C(=O)NC2(C(=O)O)C3CC4CC(C3)CC2C4)nn1-c1ccc(C(=O)N(C)CCCN(C)CCCN(C)C(=O)[C@H](CCCCNC(=O)[C@H](CC(C)C)NC(=O)C2OC2C(=O)O)NC(=O)CN2CCN(CC(=O)[O-])CCN(CC(=O)[O-])CCN(CC(=O)[O-])CC2)cc1C(C)C.[177Lu+3] (mixture of isomers)  tumour-to-lung ratio (mouse, HT-29 xenograft; 168 h post injection, biodistribution; reference: tumour over lung uptake): 4.35
O=S(=O)(Nc1ccc(OC(F)(F)F)cc1)N1CCCC(C2c3ccc(F)cc3CCc3cc(F)ccc32)C1 (stereo not shown)  tissue/plasma ratio (mouse; oral, 30 mg/kg, 2 h; reference: brain over plasma): < 0.02
C=CC(=O)Nc1cc(Nc2nccc(-c3cn(C)c4ccccc34)n2)c(OC)cc1N(C)CCNC  recovery (storage stability; human dried blood spots; 72 h, -80 °C, medium QC level): 90.3%
CC[C@H](C)[C@@H]1NC(=O)[C@H](Cc2ccc(O)cc2)NC(=O)CCCSC[C@@H](C(=O)N(CC(=O)N[C@@H](CC(C)C)C(=O)NCC(N)=O)Cc2ccc(F)cc2)NC(=O)[C@H](CC(N)=O)NC(=O)[C@H](CCC(N)=O)NC1=O  subjects with any TEAE (human; intranasal, 50 µg, 11 repeated doses): 50%
CC(C)=CCC1=C([O-])C(=O)c2ccccc2C1=O.CC(C)=CCC1=C([O-])C(=O)c2ccccc2C1=O.Cc1cc2cccnc2c2ncccc12.O.[Cu+2]  anodic peak potential (cyclic voltammetry; CH2Cl2; 0.1 mM, together with: 0.1 M Bu4NPF6; reference: Ag/AgCl (sat. KOH)): -1.39 V
CC(C)(C)C(=O)Nc1ccccc1  solubility (PBS; 2 h, pH 7.4, 25 °C, 2% DMSO): 438 µM (≈ 77.6 µg/mL)
CC(C)C[C@H](NC(=O)[C@@H](CCCCNC(=O)[C@@H](Cc1ccccc1)NC(=O)CCCCCCCNC(=O)CN1CCN(CC(=O)O)CCN(CC(=O)O)CCN(CC(=O)O)CC1)NC(=O)[C@H](Cc1ccc(O)cc1)NC(=O)[C@H](CO)NC(=O)[C@H](Cc1c[nH]c2ccccc12)NC(=O)[C@H](Cc1c[nH]cn1)NC(=O)[C@@H]1CCC(=O)N1)C(=O)N[C@@H](CCCNC(=N)N)C(=O)N1CCC[C@H]1C(=O)NCC(N)=O [indium-111 labelled]  polar metabolites in urine (radio-HPLC; nude mice, DU-145 tumour-bearing, urine; intravenous, 18.5 MBq, 1 h; reference: radioactivity): ~40%
CC[C@H](C)[C@H](NC(=O)[C@H](CCCCN)NC(=O)[C@H](CCC(=O)O)NC(=O)[C@H](CCCCN)NC(=O)[C@H](CC(C)C)NC(=O)[C@H](C)NC(=O)[C@H](C)NC(=O)[C@@H](NC(=O)[C@H](CCCCN)NC(=O)[C@@H]1CSCc2cccc(c2)CSC[C@H](NC(=O)[C@@H](NC(=O)[C@H](CCCCN)NC(C)=O)[C@@H](C)CC)C(=O)N[C@@H](C)C(=O)N[C@@H](CC(C)C)C(=O)N[C@@H](CCCCN)C(=O)N1)[C@@H](C)CC)C(=O)N[C@@H](C)C(=O)N[C@@H](C)C(=O)N[C@@H](CC(C)C)C(=O)N[C@@H](CCCCN)C(=O)N[C@@H](CCC(=O)O)C(=O)NCC(=O)N[C@@H](Cc1c[nH]c2ccccc12)C(N)=O  helicity (circular dichroism at 222 nm; PBS; pH 7.4, 20 °C, single peptide 50 µM total): 53%
Cc1nc(N)nc2c1C(=O)N[C@@H](c1ccc(F)cc1-c1cccc(OCC[18F])n1)C2  radioactivity in blood cells (Wistar rats, blood; intravenous, dose not given, 100 min): 41 ± 5%
COc1ccc2nc(-c3ccc(N(C)C)cc3)sc2c1  excitation maximum wavelength (PBS; free dye): 343 nm
C=C(NC(=O)c1csc(-c2nc3c(cc2O)-c2nc(cs2)C(=O)NC(C(C)O)C(=O)NC(=C(C)OC)c2nc(cs2)C(=O)NC2c4nc(cs4)C(=O)NC(COC(=O)c4c5c6c(cccc6n4O)COC(=O)C(OC4CC(C)(O)C(N(C)C)C(C)O4)C2OC5)c2nc-3cs2)n1)C(N)=O (stereo not shown)  Tmax (Sprague-Dawley rat, plasma; intravenous, 18 mg/kg, single dose, infusion): 4.8 min
CN1CCCC1C(=O)NC(Cc1ccc(-n2cccn2)cc1)B(O)O (stereo not shown)  Papp B→A (Caco-2): 4.9 ×10⁻⁶ cm/s
CC(=O)N([O-])CCCCCNC(=O)CCC(=O)N([O-])CCCCCNC(=O)CCC(=O)N([O-])CCCCCN.[89Zr+4]  intact complex (radio-TLC; aqueous buffer; 3 d, pH 5, 37 °C, 89Zr-labelled complex, together with: DTPA 1000-fold excess): 79.8 ± 2.9%
CC(C)[C@H](NC(=O)[C@H](Cc1c[nH]c2ccccc12)NC(=O)[C@H](CCCNC(=N)N)NC(=O)[C@H](CCCNC(=N)N)NC(=O)[C@@H](NC(=O)[C@@H](NC(=O)[C@H](CCCNC(=N)N)NC(=O)[C@@H](NC(=O)[C@@H](NC(=O)[C@H](CCCNC(=N)N)NC(=O)[C@H](CCCNC(=N)N)NC(=O)[C@@H](NC(=O)[C@H](Cc1c[nH]c2ccccc12)NC(=O)[C@H](CCCNC(=N)N)NC(=O)[C@H](CCCNC(=N)N)NC(=O)[C@@H](NC(=O)[C@H](CCCNC(=N)N)NC(=O)[C@H](CCCNC(=N)N)NC(=O)[C@@H](NC(=O)[C@H](Cc1c[nH]c2ccccc12)NC(=O)[C@H](CCCNC(=N)N)NC(=O)[C@@H](N)CCCNC(=N)N)C(C)C)C(C)C)C(C)C)C(C)C)C(C)C)C(C)C)C(C)C)C(=O)N[C@@H](CCCNC(=N)N)C(=O)N[C@@H](CCCNC(=N)N)C(=O)O  urine pH (dipstick; CD-1 mice; intravenous, 15 mg/kg, 6-24 h): 6.5
CCCCN1C(=O)c2cccc3c(NCCCCCCCCCCN4CCOCC4)ccc(c23)C1=O  fluorescence quantum yield (DMF): 0.98
C=CC[C@@H]1/C=C(\C)C[C@H](C)C[C@H](OC)[C@H]2O[C@@](O)(C(=O)C(=O)N3CCCC[C@H]3C(=O)O[C@H](/C(C)=C/[C@@H]3CC[C@@H](O)[C@H](OC)C3)[C@H](C)[C@@H](O)CC1=O)[C@H](C)C[C@@H]2OC  dose-normalized AUC(0-12h) (kidney transplant recipients, CYP3A5 *1/*1 and *1/*3, whole blood; oral, dose not given, early phase, limited sampling): 112 ± 75.4 ng·h/mL
CSCC[C@H](N)C(=O)N[C@@H](CO)C(=O)N[C@H](C(=O)N[C@@H](C)C(=O)NCC(=O)N[C@@H](CC(C)C)C(=O)N[C@@H](CCCCN)C(=O)N[C@@H](CCCCN)C(=O)N[C@@H](CCC(N)=O)C(=O)N[C@@H](Cc1c[nH]c2ccccc12)C(=O)N[C@@H](Cc1ccc(O)cc1)C(=O)N[C@@H](CCCCN)C(=O)N[C@@H](C)C(=O)N[C@@H](CO)C(=O)N[C@@H](CCC(N)=O)C(=O)N[C@@H](CC(C)C)C(=O)N[C@H](C(=O)N[C@@H](CO)C(=O)N[C@@H](CCC(=O)O)C(=O)N[C@@H](CCCCN)C(=O)N[C@H](C(=O)NCC(=O)NCC(=O)N[C@@H](C)C(N)=O)C(C)C)C(C)C)C(C)C  folding free energy (water): 5.24 kcal/mol
CCCC[C@H](NC(=O)CNC(=O)CNC(=O)[C@H](CCCCNC(=O)[C@H](CC(=O)O)NC(=O)C(C)c1ccc(CC(C)C)cc1)NC(=O)CN1CCN(CC(=O)O)CCN(CC(=O)O)CCN(CC(=O)O)CC1)C(=O)N[C@H]1CC(=O)NCCCC[C@@H](C(N)=O)NC(=O)[C@H](Cc2c[nH]c3ccccc23)NC(=O)[C@H](CCCNC(=N)N)NC(=O)[C@@H](Cc2ccccc2)NC(=O)[C@H](Cc2c[nH]cn2)NC1=O (stereo partly shown) [lutetium-177 labelled]  tissue uptake (C57 mice, tumour-bearing, blood; intravenous, 0.037 MBq, 0.5 h): 7.22 ± 0.9 %ID/g
COc1cccc(OC)c1-c1cc(C(=O)NC2(C(=O)O)C3CC4CC(C3)CC2C4)nn1-c1ccc(C(=O)N(C)CCOCCOCCN(C)C(=O)[C@H](CCCCNC(=O)[C@H](CC(C)C)NC(=O)C2OC2C(=O)O)NC(=O)CN2CCN(CC(=O)[O-])CCN(CC(=O)[O-])CCN(CC(=O)[O-])CC2)cc1C(C)C.[177Lu+3] (mixture of isomers)  tumour-to-large intestine ratio (mouse HT-29 xenograft; 168 h, biodistribution; reference: tumour over large intestine): 17.6
CC(C)(O)c1ncc([S@](N)(=O)=NC(=O)Nc2c3c(cc4c2CCC4)CCC3)s1  subjects with TEAEs (refers to: eye disorders; healthy human; oral, dose not given, all active doses pooled): 2%
N#Cc1cccc(-c2ccc3ncc(-c4cc(F)cc(F)c4)c(N4CCC(N)CC4)c3c2)c1OC1OC(C(=O)O)C(O)C(O)C1O (stereo not shown)  excreted radioactivity (human, urine and faeces; oral, 20 mg, together with: 14C-labelled drug; reference: dose): 21.8%
O=C(Nc1cnccc1-c1ccc([18F])nc1)c1ccnc(NC(=O)C2CC2)c1  SUV (ex vivo gamma counting; GSK-3β transgenic mice, early-stage, salivary gland; intravenous, 120 min, mean, P-gp inhibitor pretreatment, together with: tariquidar 15 mg/kg iv): 0.215
C/C(N)=N/C(=N\S(=O)(=O)c1ccc(C(F)(F)F)cc1)N1C[C@H](c2ccccc2)C(c2ccc(Cl)cc2)=N1  tissue/plasma ratio (C57BL/6 mouse, male, lung; intravenous, 10 mg/kg; reference: lung over plasma): 31
CCCCCCCC/C=C\CCCCCCCCO[Si](CCCCN(C)C)(OCCCCCCCC/C=C\CCCCCCCC)OCCCCCCCC/C=C\CCCCCCCC  zeta potential (pH 5.5, formulated): 3.61 mV
O=C(Oc1ccccc1)c1ccc(O)cc1  mass balance (empty Transwells without cells; 5 µM, 60 min, apical to basolateral): 38%

For quick reference, copied from above:
CC(C)[C@H](NC(=O)[C@H](Cc1c[nH]c2ccccc12)NC(=O)[C@H](CCCNC(=N)N)NC(=O)[C@H](CCCNC(=N)N)NC(=O)[C@@H](NC(=O)[C@@H](NC(=O)[C@H](CCCNC(=N)N)NC(=O)[C@@H](NC(=O)[C@@H](NC(=O)[C@H](CCCNC(=N)N)NC(=O)[C@H](CCCNC(=N)N)NC(=O)[C@@H](NC(=O)[C@H](Cc1c[nH]c2ccccc12)NC(=O)[C@H](CCCNC(=N)N)NC(=O)[C@H](CCCNC(=N)N)NC(=O)[C@@H](NC(=O)[C@H](CCCNC(=N)N)NC(=O)[C@H](CCCNC(=N)N)NC(=O)[C@@H](NC(=O)[C@H](Cc1c[nH]c2ccccc12)NC(=O)[C@H](CCCNC(=N)N)NC(=O)[C@@H](N)CCCNC(=N)N)C(C)C)C(C)C)C(C)C)C(C)C)C(C)C)C(C)C)C(C)C)C(=O)N[C@@H](CCCNC(=N)N)C(=O)N[C@@H](CCCNC(=N)N)C(=O)O  urine pH (dipstick; CD-1 mice; intravenous, 15 mg/kg, 6-24 h): 6.5
CCCCN1C(=O)c2cccc3c(NCCCCCCCCCCN4CCOCC4)ccc(c23)C1=O  fluorescence quantum yield (DMF): 0.98
